Measured values gathered from unrelated publications.
Each line is one published result; not all experiments were run side by side. ± marks the error that the study gave.

Cn1cc(Nc2nccc(-c3ccc4c(c3)CN(C3COC3)CC[C@H]4NC(=O)c3cn(C(C)(C)C)nn3)n2)cn1  IC50 (measured: CD69; B cells, mouse, whole blood; together with: anti-IgD): 0.057 ± 0.033 µM
SIYNFEKL  cytokine-negative cells (flow cytometry, measured: CD44hi CD8+ T cells; peptide, OT-I CD8+ T cells, mouse; dose not given, primed 5 days, restimulated 100 ng/mL OVA257, together with: no TGF-β1): 12.1%
Cc1ccc(NC(=O)c2ccc(CN3CCN(C)CC3)cc2)cc1Nc1nccc(-c2cccnc2)n1  RVSP (rat, SU5416/hypoxia PAH model; oral, 15.0 mg/kg once daily, day 49): 61.1 ± 7.4 mmHg
polymyxin B  carboxyfluorescein leakage (EYPC vesicles; 10 µg/mL, 250 s, pH 7.4, 25 °C; baseline: Triton X-100): 2%
cilengitide  total TGF-β1 level (Sprague-Dawley rats, TNBS colitis, colonic smooth muscle cells; ip, 18 mg/kg/day, 42 d): 16.4 ± 0.7 ng/mg protein
C#Cc1cccc(Nc2ncnc3cc(OCCOC)c(OCCOC)cc23)c1  tumour multiplicity reduction (rat MNU mammary carcinogenesis; oral, 6 mg/kg daily; baseline: vehicle): 90%
COc1ccc2c(c1)c(CC(=O)O)c(C)n2C(=O)c1ccc(Cl)cc1  cytokine level (multiplex bead immunoassay, measured: IFN; CD-1 mice, serum; ip, 20 mg/kg, three-injection regimen, together with: LPS 3 mg/kg): 0.9 ± 0.9 pg/mL
C[C@H]1C[C@H]2CSC(N)=N[C@@]2(c2nc(NC(=O)c3ccc(OC(F)F)cn3)cs2)CO1  maximum reduction (measured: plasma Aβ1-40; human; 540 mg single dose, 48 h; baseline: placebo): 90.3%
Cc1c(-c2nnc(SC/C(=N/O)c3ccccc3)n2-c2ccccc2)nnn1-c1ccc(S(N)(=O)=O)cc1  NO released (Griess; phosphate buffer-methanol; 100 µM, 1 h, pH 7.4, 37 °C, together with: N-acetylcysteine 0.5 mM; baseline: theoretical maximum release): 1.52%
C=CCOC(=O)CCC(=O)Oc1ccc(/C=C/C(=O)/C=C(O)/C=C/c2ccc(OC(=O)CCC(=O)OCC=C)c(OC)c2)cc1OC  IC50 (IL-6 secretion, ELISA; peritoneal macrophages, C57BL/6 mice; together with: LPS 10 ng/mL): 14.2 ± 12.8 µM
CN(C)C(=O)N[C@H]1CC[C@H](CCN2CCN(c3cccc(Cl)c3Cl)CC2)CC1  locomotor activity (open field; Sprague-Dawley rat, ouabain mania model; intraperitoneal, 1.0 mg/kg, 1 h pretreatment, 30 min observation, together with: ouabain i.c.v.): 19.5 ± 8.78 squares crossed
Cn1cc(-c2nc(N[C@@H]3CCCC[C@@H]3N)c(F)c3c2C(=O)NC3)cn1  complete response rate (relapsed or refractory AML patients; dose not given): 15%
O=C(/C=C/c1ccc(O)c(O)c1O)c1ccc(O)c(O)c1O  DPPH scavenging (ethanol; 20 µM, 30 min): > 80%
O=C(O)CSc1nnc(C23CC4CC(CC(C4)C2)C3)n1-c1ccccc1  paw oedema inhibition (rat carrageenan paw oedema; intraperitoneal, 40 mg/kg, 4 h after carrageenan; baseline: vehicle control): > 50%
Cc1ccc(NC(=O)c2ccc(CN3CCN(C)CC3)cc2)cc1Nc1nccc(-c2cncc(-c3oncc3C)c2)n1  PDQ-39 score (mild-to-moderate Parkinson's disease patients; oral, 50 mg once daily, day 7, on anti-Parkinson medication; direction not given): 19.9 ± 8.2
CC[C@H](C)[C@H](NC(=O)[C@H](CCC(N)=O)NC(=O)[C@H](Cc1c[nH]cn1)NC(=O)[C@H](C)NC(=O)[C@H](CC(C)C)NC(=O)[C@H](CCCCN)NC(=O)[C@H](CCC(N)=O)NC(=O)[C@@H](NC(=O)[C@@H](NC(=O)[C@@H]1CSSC[C@H](NC(=O)CNC(=O)[C@H](Cc2ccccc2)NC(=O)[C@H](CO)NC(=O)[C@H](CCCNC(=N)N)NC(=O)[C@H](CC(C)C)NC(=O)CNC(=O)[C@H](CCC(N)=O)NC(=O)[C@H](Cc2ccccc2)NC(=O)[C@H](CC(N)=O)NC(=O)[C@H](CC(N)=O)NC(=O)[C@H](CCSC)NC(=O)[C@H](CO)NC(=O)[C@H](CCC(N)=O)NC(=O)[C@H](CCCNC(=N)N)NC(=O)[C@@H](N)Cc2ccc(O)cc2)C(=O)N[C@@H](CCCNC(=N)N)C(=O)N[C@@H](Cc2ccccc2)C(=O)NCC(=O)N[C@@H]([C@@H](C)O)C(=O)N1)[C@@H](C)O)C(C)C)C(=O)N[C@@H](Cc1ccc(O)cc1)C(=O)N[C@@H](CCC(N)=O)C(=O)N[C@@H](Cc1ccccc1)C(=O)N[C@H](C(=O)N[C@@H](CC(=O)O)C(=O)N[C@@H](CCCCN)C(=O)N[C@@H](CC(=O)O)C(=O)N[C@@H](CCCCN)C(=O)N[C@@H](CC(=O)O)C(=O)N[C@@H](CC(N)=O)C(=O)N[C@H](C(=O)N[C@@H](C)C(=O)N1CCC[C@H]1C(=O)N[C@@H](CCCNC(=N)N)C(=O)N[C@@H](CO)C(=O)N[C@@H](CCCCN)C(=O)N[C@H](C(=O)N[C@@H](CO)C(=O)N1CCC[C@H]1C(=O)N[C@@H](CCC(N)=O)C(=O)NCC(=O)N[C@@H](Cc1ccc(O)cc1)C(N)=O)[C@@H](C)CC)C(C)C)[C@@H](C)O  change in CDAI (patients, biologic-resistant Crohn's disease; intravenous infusion, 10 ng/kg/min, 4 weeks, unit not given, together with: biologic; baseline: baseline): -77 ± 90
CCCn1cnc(C[C@H](NC(=O)[C@@H]2CCC(=O)C2)C(=O)N2CCC[C@H]2C(N)=O)c1  decrease in sleeping time (Swiss albino mice; intravenous, 10 µmol/kg, together with: pentobarbital; baseline: control): 61.6%
Cc1c(C(=O)NN2CCCCC2)nn(-c2ccc(Cl)cc2Cl)c1-c1ccc(Cl)cc1  insulin level (rat, diet-induced obese, plasma; peripheral, 10 mg/kg per day, 6 days): 1.38 ± 0.23 ng/mL
cotadutide  change in average glucose (measured: CGM blood glucose; human, type 2 diabetes, CKD; subcutaneous, 50 to 300 µg once daily; baseline: baseline): 2.3 mmol/L
insulin aspart  time to 10% of maximum GIR (euglycemic clamp; human, type 1 diabetes; sc, 1 × 18 IU single bolus): 30 ± 10 min
CCC1=C(C)CN(C(=O)NCCc2ccc(S(=O)(=O)NC(=O)N[C@H]3CC[C@H](C)CC3)cc2)C1=O  maximum serum glucose (oral glucose tolerance test; healthy male humans, serum; oral, dose not given, steady state, together with: 75 g glucose): 134 mg/dL
SIIVFEKL  triple cytokine producers (flow cytometry, measured: CD44hi CD8+ T cells; peptide, OT-I CD8+ T cells, mouse; 1 µg/mL loading, primed 5 days, restimulated 100 ng/mL OVA257, together with: no TGF-β1): 67.5%
gamma-MSH  MAP response onset time (Sprague Dawley rat, urethane-anaesthetised; intravenous, 15 nmol, 10% above baseline): 21.6 ± 2.01 s
Polymyxin B  IL-8 release (human whole blood; 500 ng/mL, 4 h, 37 °C, together with: E. coli LPS 0.5 ng/mL; baseline: LPS without compound): 40.6 ± 10.5%
CCc1occc(=O)c1OC(=O)c1ccc(O)c(OC)c1  thrombus protein content (Sprague-Dawley rat, common carotid artery; dose not given, 5 days twice daily, shear-induced thrombosis): 10 µg
PACAP  mRNA level (qRT-PCR, GAPDH-normalised, measured: Neprilysin; APP V717I transgenic mouse, 6 months old, brain; intranasal, dose not given, 3 months; baseline: vehicle-treated mice): 146 ± 7.1%
O=C(CSc1nc(-c2ccccc2)c(-c2ccccc2)[nH]1)Nc1nccs1  maximal force reduction (rat cardiac trabeculae; concentration not given, together with: pCa 4.0; baseline: control, 6% decline corrected): ~2%
CCCOc1ccc(S(=O)(=O)NCCC2CCCN2C)cc1-c1nc2c(CCC)nn(C)c2c(=O)[nH]1 (stereo not shown)  VO2 at anaerobic threshold (ramp cycle exercise test; human adolescents after Fontan palliation; oral, 87.5 mg twice daily, day 5): 16.5 ± 5.2 mL/min/kg
C=CC(=O)N1C[C@@H]2C[C@H]1CN2S(=O)(=O)c1ccc(N2CC(CN3CCC([C@@](CN4CCC4)(c4cccc(F)c4)[C@H]4CCC[C@@H]4NC(=O)OC)CC3)(OC)C2)cc1  mRNA level (RT-qPCR, measured: MEIS1; NCG mouse, MV4-11 luciferase disseminated xenograft, bone marrow human CD45+ cells; oral, 150 mg/kg once daily for 4 days, 48 h after last dose; baseline: vehicle): < 2%
CS/C(S)=N/CCCC[S+](C)[O-] (racemic)  mRNA fold change (RT-PCR, measured: Nqo1; rat, liver; oral gavage, 200 mg/kg, 96 h, dosed for four days; baseline: vehicle): 1.26
N[C@@H](CC(=O)N1CCn2c(nnc2C(F)(F)F)C1)Cc1cc(F)c(F)cc1F  glucose AUC reduction (oral glucose tolerance test; C57BL/6J mice, high-fat diet-induced obese, plasma; oral, 1 mg/kg once daily, week 2 of treatment, AUC 0 to 120 min; baseline: vehicle): 29%
Cc1c(OCC(F)(F)F)ccnc1C[S@@+]([O-])c1nc2ccccc2[nH]1  time with intragastric pH above threshold (healthy humans; oral, 60 mg, 0 to 12 h postdose, pH 4 threshold, single dose): 56%
COc1ccc(/C(CSc2nnc(-c3nnn(-c4ccc(S(N)(=O)=O)cc4)c3C)n2-c2ccccc2)=N\O)cc1  NO released (Griess; phosphate buffer-methanol; 100 µM, 1 h, pH 7.4, 37 °C, together with: N-acetylcysteine 0.5 mM; baseline: theoretical maximum release): 3.18%
CC(C)C[C@H](NC(=O)[C@H](CO)NC(=O)[C@H](CCCNC(=N)N)NC(=O)[C@H](CC(=O)O)NC(=O)[C@H](CCC(=O)O)NC(=O)[C@H](C)NC(=O)[C@@H]1CCCN1C(=O)[C@H](C)NC(=O)[C@H](CCC(=O)O)NC(=O)[C@@H]1CCCN1C(=O)[C@@H]1CCCN1)C(N)=O  TH+ neuron number (measured: tyrosine hydroxylase; rat F344, unilateral 6-OHDA lesion, lesioned SNpc caudal, -5.96 mm from bregma; intranasal, 300 µg daily): 26 ± 7

Excerpt of the above:
cilengitide  total TGF-β1 level (Sprague-Dawley rats, TNBS colitis, colonic smooth muscle cells; ip, 18 mg/kg/day, 42 d): 16.4 ± 0.7 ng/mg protein
C#Cc1cccc(Nc2ncnc3cc(OCCOC)c(OCCOC)cc23)c1  tumour multiplicity reduction (rat MNU mammary carcinogenesis; oral, 6 mg/kg daily; baseline: vehicle): 90%
COc1ccc2c(c1)c(CC(=O)O)c(C)n2C(=O)c1ccc(Cl)cc1  cytokine level (multiplex bead immunoassay, measured: IFN; CD-1 mice, serum; ip, 20 mg/kg, three-injection regimen, together with: LPS 3 mg/kg): 0.9 ± 0.9 pg/mL
C[C@H]1C[C@H]2CSC(N)=N[C@@]2(c2nc(NC(=O)c3ccc(OC(F)F)cn3)cs2)CO1  maximum reduction (measured: plasma Aβ1-40; human; 540 mg single dose, 48 h; baseline: placebo): 90.3%
